Measured values pooled from the literature.
Protocols differ between the studies behind these lines. Values joined by “and” are separate records of one study, mostly repeats; a detail may differ. ± gives the spread as reported.
UGT1A7: UDP-glucuronosyltransferase 1A7 (UGT1A7, Homo sapiens, UniProt Q9HAW7)
MAPK14: Mitogen-activated protein kinase 14 (MAPK14, Homo sapiens, UniProt Q16539)
T1: RNA aptamer; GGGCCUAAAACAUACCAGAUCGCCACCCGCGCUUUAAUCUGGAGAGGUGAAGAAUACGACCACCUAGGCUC

CC(C)(C)CCN1C[C@@H]2[C@@H](CNC(=O)c3cc(Cl)cc(Cl)c3)[C@@H]2C1.Cl  half-activation voltage (Voltage-dependent L-type calcium channel subunit alpha-1F, exon 47 deletion isoform (Homo sapiens, UniProt O60840); calcium current, whole-cell patch clamp; HEK-293T cells; 50 nM): -3.52 ± 2.6 mV
O=C(O)C1OC(Oc2cccc(-c3nc(N4CCOCC4)c4oc5ncccc5c4n3)c2)C(O)C(O)C1O (centres unmarked)  substrate inhibition constant (UGT1A7; glucuronidation, substrate, recombinant enzyme): 271 ± 123 µM
FC(F)(F)c1csc(Nc2ccc(Cl)c(Cl)c2)n1  kcat (Kinesin-like protein KIF15 (Homo sapiens, UniProt Q9NS87); microtubule-activated ATPase activity; 30 µM, with: ATP, microtubules 3 µM): 4.1 ± 0.4 s⁻¹
CC(=O)NCCN(CC(=O)NCCN(CC(=O)NCCN(CC(=O)NCCC(N)=O)C(=O)C[C@@H](N)CCCNC(=N)N)C(=O)C[C@@H](N)CCCCN)C(=O)C[C@@H](N)Cc1ccccc1  non-electrostatic ΔG° (HIV-1 TAR RNA; extrapolated to 1 M KCl): -7.34 ± 0.0956 kcal/mol
NC(=O)C1CCCCNC(=O)C(CCCNC(=O)c2cnccn2)NC(=O)C(Cc2ccco2)NC(=O)C(CC2CC2)NC(=O)C=CC(=O)N1 (centres unmarked)  enrichment factor (MAPK14; DNA-templated library selection; one selection round): 0.99
CC[C@H](C)[C@H](NC(=O)[C@H](CCC(=O)O)NC(=O)[C@H](CC(=O)O)NC(=O)c1ccc2c(c1)C(=O)OC21c2ccc(O)cc2Oc2cc(O)ccc21)C(=O)N[C@H](C(=O)N[C@@H](CC(N)=O)C(=O)N[C@@H](CCCCN)C(=O)N[C@H](C(=O)N[C@@H](CC(C)C)C(N)=O)C(C)C)C(C)C  binding change (yeast Vps4p GP-linker mutant; fluorescence polarization; concentration not given; baseline: wild-type Vps4p): no effect
COc1ccc(CNC(=O)c2sc3nc(C)cc(C)c3c2N)cc1  efficacy cooperativity β (Muscarinic acetylcholine receptor M4 (Rattus norvegicus, UniProt P08485); calcium mobilization, positive allosteric modulator; with: acetylcholine): 4.63
CC[C@H](C)[C@H](NC(=O)[C@H](C)NC(=O)CNC(=O)[C@H](CCCCN)NC(=O)[C@H](CC(C)C)NC(=O)[C@H](CCCCN)NC(=O)[C@H](CCCNC(=N)N)NC(=O)[C@H](CCCNC(=N)N)NC(=O)[C@H](C)NC(=O)[C@H](CC(N)=O)NC(=O)[C@H](Cc1ccccc1)NC(=O)[C@H](CCCCN)NC(=O)[C@H](CCCCN)NC(=O)[C@H](CC(C)C)NC(=O)c1ccc2c(c1)C(=O)OC21c2ccc(O)cc2Oc2cc(O)ccc21)C(=O)N[C@@H](CC(C)C)C(=O)N[C@H](C(=O)N[C@H](C(=O)N[C@@H](CCSC)C(=O)N[C@@H](CC(C)C)C(=O)N[C@@H](C)C(=O)O)[C@@H](C)O)[C@@H](C)O  anisotropy change (Calmodulin-1, C-lobe (Calm1, Rattus norvegicus, UniProt P0DP29); binding, fluorescence anisotropy; CaM residues 76-148 (C-domain), apo; 100 µM; baseline: calcium-saturated): 28%
CC(=O)NCCN(CC(=O)NCCN(CC(=O)NCCN(CC(=O)NCCC(N)=O)C(=O)[C@@H](N)Cc1ccccc1)C(=O)[C@@H](N)CCCNC(=N)N)C(=O)[C@@H](N)CCCNC(=N)N  binding free energy ΔG° (HIV-1 TAR RNA; 25 °C): -8.34 ± 0.287 kcal/mol
CC[C@H](C)[C@H](NC(=O)[C@@H](NC(=O)[C@H](Cc1ccccc1)NC(=O)[C@H](CC(=O)O)NC(=O)[C@H](CCCCN)NC(=O)CCNC(=O)c1ccc2c(c1)C(=O)OC21c2ccc(O)cc2Oc2cc(O)ccc21)C(C)C)C(=O)N[C@H](C(=O)N[C@@H](CCCNC(=N)N)C(=O)N[C@@H](CCCNC(=N)N)C(=O)N1CCC[C@H]1C(=O)N[C@@H](CCCCN)C(N)=O)C(C)C  binding affinity loss (human CDK2-cyclin A M210A/I213A; fluorescence polarization; concentration not given; baseline: wild type over mutant): ~5 fold
COc1cc(/C=C2/SC(=S)N(CC(=O)Nc3ccccn3)C2=O)cc(OC)c1OC  remaining activity (ADP-ribosyl cyclase/cyclic ADP-ribose hydrolase 1 (CD38, Homo sapiens, UniProt P28907); hydrolase activity, fluorometric; 50 µM, with: ε-NAD+ substrate; baseline: untreated): 80.7 ± 3.7%
CC[C@H](C)[C@H](NC(=O)[C@H](CO)NC(=O)[C@H](CCCCN)NC(=O)CNC(=O)[C@H](CCCCN)NC(=O)[C@H](CC(=O)O)NC(=O)[C@H](Cc1c[nH]cn1)NC(=O)[C@H](CC(C)C)NC(=O)[C@H](CC(C)C)NC(=O)[C@H](CCC(N)=O)NC(=O)[C@H](Cc1c[nH]cn1)NC(=O)[C@H](CCC(=O)O)NC(=O)[C@H](CO)NC(=O)[C@@H](NC(=O)[C@H](C)N)C(C)C)C(=O)N[C@@H](CCC(N)=O)C(=O)N[C@@H](CO)C(=O)N[C@@H](CCSC)C(=O)N[C@@H](CCC(=O)O)C(=O)N[C@@H](CCCNC(=N)N)C(=O)N[C@H](C(=O)N[C@@H](CCC(=O)O)C(=O)N[C@@H](Cc1c[nH]c2ccccc12)C(=O)N[C@@H](CC(C)C)C(=O)N[C@@H](CCCNC(=N)N)C(=O)N[C@@H](CCCCN)C(=O)N[C@@H](CCCCN)C(=O)N[C@@H](CC(C)C)C(=O)N[C@@H](CCC(N)=O)C(=O)N[C@@H](CC(=O)O)C(=O)N[C@H](C(=O)N[C@@H](Cc1c[nH]cn1)C(=O)N[C@@H](CC(N)=O)C(=O)N[C@@H](Cc1ccccc1)C(=O)N[C@@H](CCCCNC(=O)c1ccc2c(c1)C1(OC2=O)c2ccc(N(C)C)cc2Oc2cc(N(C)C)ccc21)C(N)=O)C(C)C)C(C)C  kon (Parathyroid hormone/parathyroid hormone-related peptide receptor (PTH1R, Homo sapiens, UniProt Q03431); binding, NanoBRET; HEK293 stably expressing receptor; room temperature, 0.02% sodium azide, with: 5 µM coelenterazine h): 430000 ± 60000 M⁻¹ s⁻¹
CC(C)C[C@H](NC(=O)[C@@H](NC(=O)[C@@H](NC(=O)CN)[C@@H](C)O)C(C)C)C(=O)N1CCC[C@H]1C(=O)N1CCC[C@H]1C(=O)N1CCC[C@H]1C(=O)N1CCC[C@H]1C(=O)N[C@@H](Cc1ccc(O)cc1)C(=O)N[C@@H](CCCNC(=N)N)C(=O)N[C@@H](Cc1c[nH]cn1)C(=O)N[C@@H](CCCNC(=N)N)C(=O)N[C@@H](CC(N)=O)C(=O)O  ΔH (WW domain-containing oxidoreductase, WW1 domain (WWOX, Homo sapiens, UniProt Q9NZC7); binding, isothermal titration calorimetry; pH 7.8, 20 °C, isolated WW1 domain): -23 ± 1.2 kcal/mol
CC(=O)NCCN(CC(=O)NCCN(CC(=O)NCCN(CC(=O)NCCC(N)=O)C(=O)[C@@H](N)CCCNC(=N)N)C(=O)[C@@H](N)Cc1ccccc1)C(=O)[C@@H](N)Cc1ccccc1  non-electrostatic TΔS° (HIV-1 TAR RNA): -4.09 ± 0.143 kcal/mol
CC[C@H](C)[C@@H]1NC(=O)[C@H](Cc2ccc(O)cc2)NC(=O)[C@@H](N)CSSC[C@@H](C(=O)N2CCC[C@H]2C(=O)N[C@@H](CC(C)C)C(=O)NCC(N)=O)NC(=O)[C@H](CC(N)=O)NC(=O)[C@H](CCC(N)=O)NC1=O  activation (Vasopressin V1a receptor (AVPR1A, Homo sapiens, UniProt P37288); agonist; concentration not given): 93%
CCCC(=O)Nc1ccc(OC)nc1C  specific activity ratio (Liver carboxylesterase 1 (CES1, Homo sapiens, UniProt P23141); enzyme activity, substrate; baseline: CES1 over human CES2): 0.5
CC(=O)NCCN(CCC(=O)NCCN(CCC(=O)NCCN(CCC(=O)NCCC(N)=O)C(=O)[C@@H](N)Cc1ccccc1)C(=O)[C@@H](N)CCCNC(=N)N)C(=O)[C@@H](N)CCCNC(=N)N  non-electrostatic ΔG° (HIV-1 TAR RNA; extrapolated to 1 M KCl): -8.27 ± 0.0956 kcal/mol
O=C(NC[C@@H](Cc1ccc(F)cc1)N1CCC(O)(C(F)(F)F)CC1)C1(c2ccc(Cl)cc2)CCCC1  Hill slope (Transient receptor potential cation channel subfamily A member 1 (TRPA1, Homo sapiens, UniProt O75762); calcium influx; HEK293F transiently expressing TRPA1): 1.6 and 1.5
O=C(c1ccco1)N1CCN(Cc2ccc(Br)cc2)CC1  ligand efficiency (MAPK14; enzyme activity): 0.15
N=C(N)NCCC[C@H](NC(=O)[C@H](Cc1ccccc1)NC(=O)[C@@H](N)CO)C(=O)N[C@@H](CC(N)=O)C(=O)NCC(N)=O  bias factor (Neuropeptide S receptor (NPSR1, Homo sapiens, UniProt Q6W5P4, N107I); agonist; CHO-Galpha16; baseline: calcium over cAMP): 2.06
CC(=O)NCCN(CC(=O)NCCN(CC(=O)NCCN(CC(=O)NCCC(N)=O)C(=O)C[C@@H](N)Cc1ccccc1)C(=O)C[C@@H](N)CCCNC(=N)N)C(=O)C[C@@H](N)CCCNC(=N)N  non-electrostatic TΔS° (HIV-1 TAR RNA): -1.82 ± 0.55 kcal/mol
NC(=O)C1CCNC(=O)C(CCCNC(=O)c2cnccn2)NC(=O)C(CC2CCCCC2)NC(=O)C(CC2CC2)NC(=O)C=CC(=O)N1 (centres unmarked)  enrichment factor (MAPK14; DNA-templated library selection; one selection round): 1.6
O=C(O)CCn1c2ccc(Cl)cc2c2cc(Cl)ccc21  Hill coefficient (Kcnk10 (Mus musculus, UniProt Q8BUW1); ion current, two-electrode voltage clamp; Xenopus oocytes): 1 ± 0.4
O=C(O)[C@H]1O[C@@H](O[C@H]2C=Cc3c(cc4ccc5cccc6c7ccccc7c3c4c56)[C@@H]2O)[C@H](O)[C@@H](O)[C@@H]1O  kcat/Km (UGT1A7; glucuronidation, substrate; UGT-expressing HEK293 homogenate; normalized to UGT expression): < 0.0167 M⁻¹ s⁻¹
O=C1CC[C@H](N2Cc3cc(-c4ccn5ncc(Cl)c5n4)ccc3C2=O)C(=O)N1  onset time of degradation (Cereblon/Casein kinase I alpha (CSNK1A1/CRBN, Homo sapiens, UniProt P48729+Q96SW2); degrader, immunoblot; MOLM-13; 100 nM): 2 h
C[C@@]1(O)c2cccc(O)c2C(O)=C2C(=O)[C@]3(O)C(O)=C(C(N)=O)C(=O)C[C@@H]3C[C@@H]21  Kd (T1, RNA aptamer; fluorescence titration; pH 7.5, 25 °C, MgCl2 10 mM): 1.97 nM

A few entries again:
CC(C)(C)CCN1C[C@@H]2[C@@H](CNC(=O)c3cc(Cl)cc(Cl)c3)[C@@H]2C1.Cl  half-activation voltage (Voltage-dependent L-type calcium channel subunit alpha-1F, exon 47 deletion isoform (Homo sapiens, UniProt O60840); calcium current, whole-cell patch clamp; HEK-293T cells; 50 nM): -3.52 ± 2.6 mV
